Measurements pooled from the literature.
Numbered parts are unrelated; each lists some results of a single study.

Series 1
Target: RNA binding protein fox-1 homolog 2, RRM domain, GST-SBP tag (RBFOX2, Homo sapiens, UniProt O43251-10, residues 100-194)
Method: RNA Bind-n-Seq
Form: RNA
Matrix: in vitro
Tested at: 365 nM
Setting: natural RNA segment, single round, ends assumed
Relative to: no-protein control
Reading: higher = stronger binding
Construct (chain): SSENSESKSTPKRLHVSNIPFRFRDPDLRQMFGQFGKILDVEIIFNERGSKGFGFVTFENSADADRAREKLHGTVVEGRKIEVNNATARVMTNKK
`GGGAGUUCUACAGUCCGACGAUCACUGCCCUUCCUAGUUGGUGGCUGCCAUGUUGGACUGUGGAUCUAAACACUUCUAGAGCUUUGUGGUCCAAACUCUGGCUCUCCCGUCUGCAAAACAGGAGCCAGCCUGGUGGAAUUCUCGGGUGCCAA`: “RBNS enrichment (R)” 0.258.
Under “RBNS enrichment (R)”, `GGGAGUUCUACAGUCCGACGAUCGAAAGCCUAAGUGUAAAUAUAUAUCUCUUUAUAUUUGUCUAGUCUGGUAAAAGGGAAUUCAGAAGAUUGCCUUAGAGUCUAAUUCCCCCAUGAAAGAUUAUUAAUUACAUUGGAAUUCUCGGGUGCCAA` is recorded as 1.49.
`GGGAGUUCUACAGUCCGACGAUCACUCGGUUCACUUCAGACUACGUGAUUGGAAGUCAUUCCUCGGUUGCACUAGCCACACAAAAUGCUCAGUCACCAUCCCCCGGGCACCGAGGGUUAAGCUGGUUUAGCAGUGGAAUUCUCGGGUGCCAA` — result for “RBNS enrichment (R)”: 0.143.
Under “RBNS enrichment (R)”, `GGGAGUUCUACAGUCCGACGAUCGCUGCGCUGAGUGAGUUAUGAGGUGCCUUUCCCGGAACCCUCCUCUCGCCUGGACCCAAGAGAGGCGACAGCUGUGGCUGGGGCUCUUGGUUUCCAGAGGGUCUGGACUGUGGAAUUCUCGGGUGCCAA` is recorded as 0.473.
For `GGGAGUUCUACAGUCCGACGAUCUGGCAACUGUGAGUCCCUGCUUCCCGACACCAGCCUCAUGGAAUAUGCAACAACUCCUGUACCCCAGUCCACGGUGUUCUGGCAGCAGGGACACCUGGGCCAAUGGGCCAUGGAAUUCUCGGGUGCCAA`, “RBNS enrichment (R)” read 0.686.
`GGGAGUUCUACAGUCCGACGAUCGCCGUGGUCCUGGGAGCCAGGAAGACUCCGCAGUGGGUGAGAAUGAAAACUUGAGACUCCCAAGUUCUGGGCCAGCCCAUUGCUCUGGGCUGUUUUAAAGCCCAUUUCACUGGAAUUCUCGGGUGCCAA`: “RBNS enrichment (R)” 0.508.
`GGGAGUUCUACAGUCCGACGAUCAAACUCAUCCUGUAGAGCAGGCUGGCCUUGAACUCACAGAGCUCCACCUGCCCCUGCCUCUGAUCCAGAGUGCUGGGGUUACAGGUGACCCCAACCAUAACCAGUUCAUUUGGAAUUCUCGGGUGCCAA`: “RBNS enrichment (R)” 0.241.
For `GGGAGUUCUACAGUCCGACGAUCGGGUUUUGAUUUCAGUUUUCCCCCUUUCUCUGCCCUGGGGGCUGGGCUCCUUAUUGCUGCUUAGGCCUAGAAAGUUUAAGUAUGUGGAAGAGGAGAGUGAGUUGUAAGUUUGGAAUUCUCGGGUGCCAA`, “RBNS enrichment (R)” read 0.576.

Series 2
Target: Histone acetyltransferase KAT6A, both winged helices, GST fusion (KAT6A, Homo sapiens, UniProt Q92794, residues 1-181)
Method: protein binding microarray
Form: double-stranded DNA, one strand shown
Matrix: in vitro
Tested at: not given
Setting: 8-mer, flanks averaged, mean of 2 arrays, mostly near background
Relative to: not given
Reading: higher = stronger binding
Residues (chain): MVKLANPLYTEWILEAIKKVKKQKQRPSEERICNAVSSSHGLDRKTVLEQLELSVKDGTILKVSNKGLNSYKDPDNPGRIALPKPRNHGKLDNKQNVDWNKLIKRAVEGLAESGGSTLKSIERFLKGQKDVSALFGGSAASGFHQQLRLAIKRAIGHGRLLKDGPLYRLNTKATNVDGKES
`AAGATGTC` gave an E-score of -0.0867.
`CATGAGTA` has an E-score of -0.0227.
The E-score of `CCCGAGCG` is reported as 0.269.
For `GCGGATAC`, the E-score was 0.266.
`ACGCCGAT` has an E-score of 0.271.
`AATTGCTG` has an E-score of 0.067.

Series 3
Target: Phosphate system positive regulatory protein PHO4, full length, GST-tagged (PHO4, Saccharomyces cerevisiae, UniProt P07270, residues 1-312)
Method: competition protein-binding microarray
Form: double-stranded DNA, one strand shown
Matrix: in vitro
Tested at: 2 µM
Setting: whole 60-bp probe, lowest competitor level
Together with: Cbf1 competitor, 0.05 µM
Reading: higher = stronger binding
Construct (chain): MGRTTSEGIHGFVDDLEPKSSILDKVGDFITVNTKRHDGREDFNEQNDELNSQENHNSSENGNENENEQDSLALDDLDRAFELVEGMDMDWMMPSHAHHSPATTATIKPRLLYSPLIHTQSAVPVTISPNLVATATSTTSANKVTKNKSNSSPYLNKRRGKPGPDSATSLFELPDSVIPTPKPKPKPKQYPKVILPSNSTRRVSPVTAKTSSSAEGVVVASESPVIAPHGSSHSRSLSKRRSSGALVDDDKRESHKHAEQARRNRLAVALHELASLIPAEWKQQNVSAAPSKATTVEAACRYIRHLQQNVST
`AAAGCGGTAATTTGATACGTGGGTGCAGATATCTATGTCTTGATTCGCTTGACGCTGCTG` gave a fluorescence intensity of 6900 a.u.
The fluorescence intensity of `CGTTTTTTTTCCCGACACGTGTCGGAGAAGAGTTTGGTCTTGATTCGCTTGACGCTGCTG` is reported as 17500 a.u.
For `CTTTCCCGATCTTGCATTGTGGGTGTAGCACATTTGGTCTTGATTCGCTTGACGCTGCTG`, the fluorescence intensity was 6030 a.u.
`CTAACGAAGGTTTGATTTGTGGGTGACAAGCCAAGTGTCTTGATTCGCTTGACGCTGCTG` has a fluorescence intensity of 3230 a.u.
The fluorescence intensity of `CTTTCCCGATCTTGAAGAGTGGGTGTAGCACATTTGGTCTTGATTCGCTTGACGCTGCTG` is reported as 4560 a.u.
The fluorescence intensity of `CTTTCCCGATCTTGTCACTGTACTTTAGCACATTTGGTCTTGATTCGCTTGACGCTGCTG` is reported as 4360 a.u.

Further values, each from its own experiment
The fold induction of `PhoQ, residues 284 288 289 292 302 303 SCEHLI` is reported as 3.59 (PhoP, residues 12 14 15 18 19 QWHVF (Escherichia coli, UniProt P23836); Sort-seq, refers to: YFP reporter; E. coli; PhoQ-PhoP variant library, together with: 10 µM Mg2+; relative to: high Mg2+ state, higher = stronger signaling).

Some of these lines once more (series 2):
The E-score of `CCCGAGCG` is reported as 0.269.
